{"data": "Results of several laboratories", "note": "Compare with care: the assays were run in different laboratories.", "UniProt P53680, sequence (whole entry, looked up)": "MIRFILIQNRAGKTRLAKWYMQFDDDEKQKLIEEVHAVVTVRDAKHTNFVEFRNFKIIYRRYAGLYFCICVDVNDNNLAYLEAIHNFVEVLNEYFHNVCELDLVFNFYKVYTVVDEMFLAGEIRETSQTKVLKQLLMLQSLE"}
{"Structure (SMILES)": "O=C(Nc1ccc(S(=O)(=O)N2CCC(Cl)CC2)cc1)c1ccc([N+](=O)[O-])o1", "target or system": "hepatocytes, human, immortalized, Fa2N-4", "assay": "cytotoxicity", "conditions": "24 h", "endpoint": "CC50", "value": "11.4 µM"}
{"Structure (SMILES)": "C[C@H]1CN(c2n[nH]c3nc(N[C@H]4CC[C@H](NS(=O)(=O)CCC(F)(F)F)CC4)ncc23)CCO1", "target or system": "AP-2 complex subunit sigma (Homo sapiens, UniProt P53680)", "assay": "Kinobeads competition, refers to: AP2S1", "conditions": "0.16 µM, unit not given", "how to read": "baseline: vehicle", "endpoint": "remaining binding", "value": 1.13}
{"Structure (SMILES)": "CC[C@H](C)[C@H](NC(=O)[C@H](Cc1ccccc1)NC(=O)[C@H](CCC(=O)O)NC(=O)[C@H](CCCNC(=N)N)NC(=O)[C@H](C)NC(=O)[C@H](C)NC(=O)[C@H](CCC(N)=O)NC(=O)[C@H](CCC(=O)O)NC(=O)[C@H](CCC(=O)O)NC(=O)[C@H](CC(C)C)NC(=O)[C@H](Cc1ccc(O)cc1)NC(=O)[C@H](CO)NC(=O)[C@H](CO)NC(=O)[C@@H](NC(=O)[C@H](CC(=O)O)NC(=O)[C@H](CO)NC(=O)[C@@H](NC(=O)[C@H](Cc1ccccc1)NC(=O)[C@@H](NC(=O)CNC(=O)[C@H](CCC(=O)O)NC(=O)[C@H](C)NC(=O)CCc1c[nH]cn1)[C@@H](C)O)[C@@H](C)O)C(C)C)C(=O)N[C@@H](C)C(=O)N[C@@H](Cc1c[nH]c2ccccc12)C(=O)N[C@@H](CC(C)C)C(=O)N[C@H](C(=O)N[C@@H](CCCNC(=N)N)C(=O)NCC(=O)N[C@@H](CCCNC(=N)N)C(=O)N[C@@H](CCCCNC(=O)COCCOCCNC(=O)COCCOCCNC(=O)CC[C@H](NC(=O)CCCCCCCCCCCCCCCCC(=O)O)C(=O)O)C(=O)NCC(=O)NCC(=O)N[C@@H](CO)C(=O)N[C@@H](CCCCNc1c(NCCCCCN(O)C(=O)CCC(=O)NCCCCCN(O)C(=O)CCC(=O)NCCCCCN(O)C(C)=O)c(=O)c1=O)C(=O)O)C(C)C [zirconium-89 labelled]", "system": "rat, brain", "conditions": "iv, 3 nmol/kg, 24 h, ex vivo", "endpoint": "tissue uptake", "value": "0.02 %ID/g"}
{"Structure (SMILES)": "CC(C)(C)c1ccc(-c2nn3c(Cn4nnc5ccccc54)nnc3s2)cc1", "target or system": "HEp-2", "assay": "cytotoxicity", "endpoint": "CC50", "value": "34 µM"}
{"Structure (SMILES)": "Cn1cc(CN2CCCC(COc3ccccc3C(=O)N3CCCCC3)C2)c2ccccc21 (stereo not drawn)", "target or system": "Vero-E6", "assay": "CellTiter-Glo ATP", "conditions": "72 h, retest 8-point duplicates", "how to read": "baseline: DMSO 0%, hyamine -100%, more negative, more toxic", "endpoint": "maximum response", "value": "-11.2%"}
{"Structure (SMILES)": "Cc1nc2ccccc2n1Cc1nnc2sc(-c3ccc(F)c(Br)c3)nn12", "target or system": "HEp-2", "assay": "cytotoxicity", "endpoint": "CC50", "value": "9.7 µM"}
{"Structure (SMILES)": "CC(C)C[C@H](NC(=O)OCc1ccccc1)C(=O)N[C@H](C=O)C[C@@H]1CCCNC1=O", "target or system": "Huh-7", "assay": "cytotoxicity", "endpoint": "CC50", "value": "> 100 µM"}
{"Structure (SMILES)": "CC[C@H](C)[C@H](NC(=O)[C@H](C)NC(=O)[C@H](CCCCN)NC(=O)[C@H](CC(N)=O)NC(=O)[C@@H](NC(=O)[C@H](CCCCN)NC(=O)[C@H](CCCCN)NC(=O)[C@H](CC(C)C)NC(=O)[C@@H](NC(=O)[C@H](CCCCN)NC(=O)CNC(=O)[C@@H](NC(=O)CNC(=O)[C@H](CC(N)=O)NC(=O)[C@@H](NC(=O)CNC(=O)[C@H](Cc1ccc(O)cc1)NC(=O)[C@H](CCCNC(=N)N)NC(=O)[C@H](CCSC)NC(=O)[C@@H](NC(=O)[C@H](CCSC)NC(=O)[C@H](C)NC(=O)[C@H](CC(C)C)NC(=O)[C@H](CCC(N)=O)NC(=O)[C@H](CCCCN)NC(=O)[C@H](CCCCN)NC(=O)[C@@H](NC(=O)[C@@H](N)CCCNC(=N)N)[C@@H](C)O)C(C)C)C(C)C)C(C)C)[C@@H](C)CC)[C@@H](C)CC)C(=O)N[C@H](C(=O)N[C@@H](CO)C(=O)N[C@@H](CCCCN)C(=O)N[C@@H](CCCCN)C(=O)N[C@@H](CC(N)=O)C(=O)N[C@@H](CCCCN)C(=O)O)C(C)C", "target or system": "THP-1, PMA-differentiated", "assay": "cell viability, MTT", "endpoint": "CC50", "value": "14.8 µM"}
{"Structure (SMILES)": "O[C@H]1[C@H]2c3cc4c(cc3CN3CCC(=C[C@@H]1O)[C@H]23)OCO4", "target or system": "Huh-7.5.1", "assay": "cell viability, ATPlite", "endpoint": "CC50", "value": "> 31.6 µM"}
{"Structure (SMILES)": "CO[C@H]1C[C@@H]2CC[C@@H](C)[C@@](O)(O2)C(=O)C(=O)N2CCCC[C@H]2C(=O)O[C@H]([C@H](C)C[C@@H]2CC[C@@H](OC(=O)NCCOCCOCCOCCOCCOCCOCCOCCOCCC(=O)N3CCc4cc(Cn5nc(-c6ccc7oc(N)nc7c6)c6c(N)ncnc65)ccc4C3)[C@H](OC)C2)C[C@@H](O)[C@H](C)/C=C(\\C)[C@@H](O)[C@@H](OC)C(=O)[C@H](C)C[C@H](C)/C=C/C=C/C=C/1C", "assay": "phase 1 dose escalation", "system": "advanced solid tumour patients", "conditions": "intravenous, 8 mg weekly, grade ≥3", "endpoint": "any SAE incidence", "value": "37.5%"}
{"Structure (SMILES)": "COc1cc2c(Oc3ccc4[nH]c(C)cc4c3F)ccnc2cc1OCC1(N)CC1", "system": "paediatric recurrent refractory sarcoma", "conditions": "12 mg", "endpoint": "grade 1 or 2 sinus arrhythmia", "value": "0%"}
{"Structure (SMILES)": "CC[C@H](C)[C@H](NC(=O)[C@H](CCCNC(=N)N)NC(=O)[C@@H](NC(=O)[C@H](CC(C)C)NC(=O)[C@H](Cc1c[nH]c2ccccc12)NC(=O)[C@H](Cc1ccc(O)cc1)NC(=O)[C@@H](NC(=O)[C@H](CO)NC(=O)[C@@H](NC(=O)[C@H](CCCNC(=N)N)NC(=O)[C@H](CCC(N)=O)NC(=O)[C@H](CCCNC(=N)N)NC(=O)[C@@H]1CCCN1C(=O)[C@H](CC(C)C)NC(=O)[C@H](CO)NC(=O)[C@@H](NC(=O)[C@H](CC(C)C)NC(=O)[C@@H]1CCCN1C(=O)[C@H](CCC(N)=O)NC(=O)[C@H](CCCCN)NC(=O)[C@H](Cc1c[nH]cn1)NC(=O)[C@H](CS)NC(=O)[C@H](CCCNC(=N)N)NC(=O)[C@H](CCCCN)NC(=O)[C@H](CO)NC(=O)[C@H](CC(C)C)NC(=O)[C@H](CO)NC(=O)[C@H](Cc1ccccc1)NC(=O)[C@H](CC(C)C)NC(=O)[C@H](CCCCN)NC(=O)[C@H](Cc1c[nH]cn1)NC(=O)[C@@H](NC(=O)[C@@H](NC(=O)[C@H](CCCCN)NC(=O)[C@H](CCC(N)=O)NC(=O)[C@H](C)NC(=O)[C@H](CCCCN)NC(=O)[C@H](CC(C)C)NC(=O)[C@H](Cc1ccccc1)NC(=O)[C@H](CC(C)C)NC(=O)[C@H](CCC(N)=O)NC(=O)[C@H](CCCCN)NC(=O)[C@@H](N)CCSC)[C@@H](C)CC)C(C)C)[C@@H](C)CC)[C@@H](C)O)[C@@H](C)O)[C@@H](C)O)C(=O)O", "target or system": "THP-1, PMA-differentiated", "assay": "cell viability, MTT", "endpoint": "CC50", "value": "21.9 µM"}
{"Structure (SMILES)": "Nc1ncnc2c1ccn2[C@H]1[C@H](O)[C@H](O)[C@]2(CO)C[C@H]12", "target or system": "monkey cell line", "assay": "visual", "endpoint": "CC50", "value": "> 100 µM"}
{"Structure (SMILES)": "CC(C)Cc1cc(-c2nn3c(Cn4cnc5ccccc54)nnc3s2)n[nH]1", "target or system": "HEp-2", "assay": "cytotoxicity", "endpoint": "CC50", "value": "> 100 µM"}
{"Structure (SMILES)": "CC[C@H](C)[C@H](NC(=O)[C@H](C)NC(=O)[C@H](CO)NC(=O)[C@@H](NC(=O)[C@H](CCCCN)NC(=O)[C@H](CCSC)NC(=O)[C@H](CC(C)C)NC(=O)[C@H](CO)NC(=O)[C@H](CC(C)C)NC(=O)[C@H](CCCNC(=N)N)NC(=O)[C@H](Cc1c[nH]cn1)NC(=O)[C@@H](NC(=O)[C@H](CC(C)C)NC(=O)[C@H](CC(N)=O)NC(=O)[C@H](Cc1ccccc1)NC(=O)CN)[C@@H](C)CC)[C@@H](C)O)C(=O)N[C@@H](CCCCN)C(=O)N[C@@H](CCCCN)C(=O)N[C@H](C(=O)N[C@@H](CCCNC(=N)N)C(=O)N[C@@H](CC(N)=O)C(=O)N1CCC[C@H]1C(=O)N[C@@H](CCCCN)C(=O)NCC(=O)N1CCC[C@H]1C(=O)N[C@@H](CC(C)C)C(=O)N[C@H](C(=O)N[C@@H](CC(C)C)C(=O)N[C@@H](CCCNC(=N)N)C(=O)N[C@@H](CC(C)C)C(=O)NCC(=O)N[C@@H](C)C(=O)N[C@@H](C)C(=O)N1CCC[C@H]1C(=O)N[C@H](C(=O)N[C@H](C(=O)N[C@@H](CCC(N)=O)C(=O)N1CCC[C@H]1C(=O)N[C@H](C(=O)N[C@@H](CCCNC(=N)N)C(=O)N[C@@H](CCCNC(=N)N)C(=O)N[C@H](C(=O)N[C@@H](Cc1ccccc1)C(=O)N1CCC[C@H]1C(=O)N[C@@H](CCCNC(=N)N)C(=O)NCC(=O)N[C@@H](CC(C)C)C(=O)N1CCC[C@H]1C(=O)O)C(C)C)[C@@H](C)O)[C@@H](C)O)C(C)C)[C@@H](C)CC)[C@@H](C)CC", "target or system": "THP-1, PMA-differentiated", "assay": "cell viability, MTT", "endpoint": "CC50", "value": "262 µM"}
